{"data": "Experimental data collected from several papers", "note": "± marks the error that the study gave."}
{"SMILES": "O=C1c2cc(Br)ccc2NC12CCCC2", "target": "acetylcholinesterase", "conditions": "10 µM", "measurement": "remaining activity", "value": "60.9 ± 4.42%"}
{"SMILES": "COCOC[C@H]1O[C@H](O[C@H]2[C@H](O[C@@H]3O[C@H](CO)[C@@H](O[C@H]4O[C@@H](CN)[C@@H](O)[C@H](O)[C@H]4N)[C@H]3O)[C@@H](O)[C@H](N)C[C@@H]2N)[C@H](N)[C@@H](O)[C@@H]1OCOC", "target": "ribosome with mitochondrial A site", "assay": "luciferase translation, cell-free translation", "measurement": "IC50", "value": "> 700 µg/mL"}
{"SMILES": "CCCCCCC(=O)C(=O)C(O)CO (stereo not shown)", "target": "MscS, Escherichia coli", "assay": "channel gating, patch clamp", "test system": "giant spheroplasts", "conditions": "1 mM, asymmetric addition", "measurement": "maximal shift of p0.5", "value": "20%"}
{"SMILES": "Cc1cn(C2CCC(OC(C(=O)O)P(=O)(O)O)C2)c(=O)[nH]c1=O (racemic)", "target": "HIV-1 reverse transcriptase M184I/E138K", "assay": "enzyme activity, inhibitor", "conditions": "added: poly(rA)·dT, [3H]dTTP", "how to read": "relative to: mutant over wild type", "measurement": "fold resistance", "value": "16 fold"}
{"SMILES": "NC[C@@H]1O[C@H](O[C@H]2[C@@H](O)[C@H](O[C@@H]3[C@@H](O)[C@H](N)C[C@H](N)[C@H]3O[C@H]3O[C@@H]4COCO[C@H]4[C@H](O)[C@H]3N)O[C@@H]2CO)[C@H](N)[C@@H](O)[C@@H]1O", "target": "ribosome with mitochondrial A1555G A site", "assay": "luciferase translation, cell-free translation", "measurement": "IC50", "value": "253 ± 37.6 µg/mL"}
{"SMILES": "CCN(CC)CCOc1ccc(-c2nnn(Cc3ccc(OC)cc3)c2N)cc1", "target": "RKIP and MEK1/2", "assay": "protein interaction, pull-down", "test system": "HEK293 lysate", "conditions": "10 µM", "measurement": "binding", "value": "no effect"}
{"SMILES": "CO[C@H]1[C@H](O)[C@@H](N)[C@@H](O[C@H]2[C@H](O[C@@H]3O[C@H](CO)[C@@H](O[C@H]4O[C@@H](CN)[C@@H](O)[C@H](O)[C@H]4N)[C@H]3O)[C@@H](O)[C@H](N)C[C@@H]2N)O[C@@H]1CO", "target": "ribosome with mitochondrial A1555G A site", "assay": "luciferase translation, cell-free translation", "measurement": "IC50", "value": "175 ± 46.5 µg/mL"}
{"SMILES": "O=C1c2ccccc2N(Cc2ccccc2)C12CCCC2", "target": "acetylcholinesterase", "conditions": "10 µM", "measurement": "remaining activity", "value": "68.31 ± 0.51%"}
{"SMILES": "CCCCCCCCC(=O)NCc1ccc(O)c(OC)c1", "target": "mAb 3-LD3", "assay": "antibody binding, indirect competitive ELISA", "conditions": "added: coating antigen hapten 4-OVA", "measurement": "IC50", "value": "0.00475 µg/mL"}
{"SMILES": "CC[C@H](C)[C@H](NC(=O)[C@H](Cc1ccccc1)NC(=O)[C@H](CCC(=O)O)NC(=O)[C@H](CCCCNC(=O)COCC(=O)NCCCOCCOCCOCCCNC(=O)CNC(=O)[C@@H]1CCCN1C(=O)CNC(=O)[C@@H]1CCCN1C(=O)CNC(=O)[C@@H]1CCCN1C(=O)[C@H](CCCCNC(=O)CN(CCN(CCN(CC(=O)O)CC(=O)O)CC(=O)O)CC(=O)O)NC(=O)COCC(=O)NCCCOCCOCCOCCCNC(=O)COCC(=O)NCCOc1ccc(Cl)cc1C(=O)NCCc1ccc(S(=O)(=O)NC(=O)NC2CCCCC2)cc1)NC(=O)[C@H](C)NC(=O)[C@H](C)NC(=O)[C@H](CCC(N)=O)NC(=O)CNC(=O)[C@H](CCC(=O)O)NC(=O)[C@H](CC(C)C)NC(=O)[C@H](Cc1ccc(O)cc1)NC(=O)[C@H](CO)NC(=O)[C@H](CO)NC(=O)[C@@H](NC(=O)[C@H](CC(=O)O)NC(=O)[C@H](CO)NC(=O)[C@@H](NC(=O)[C@H](Cc1ccccc1)NC(=O)[C@@H](NC(=O)CNC(=O)[C@H](CCC(=O)O)NC(=O)[C@H](C)NC(=O)[C@@H](N)Cc1c[nH]cn1)[C@@H](C)O)[C@@H](C)O)C(C)C)C(=O)N[C@@H](C)C(=O)N[C@@H](Cc1c[nH]c2ccccc12)C(=O)N[C@@H](CC(C)C)C(=O)N[C@H](C(=O)N[C@@H](CCCNC(=N)N)C(=O)NCC(=O)N[C@@H](CCCNC(=N)N)C(=O)NCC(N)=O)C(C)C", "target": "GLP-1R and SUR1", "assay": "saturation binding, time-resolved fluorescence", "test system": "βTC3", "conditions": "added: Eu-labelled ligand", "how to read": "relative to: monomeric Eu-labelled GLP-1", "measurement": "affinity gain", "value": "~3 fold"}
{"SMILES": "CC[C@H]1CN2CCc3c([nH]c4cccc(OC)c34)[C@@H]2C[C@@H]1/C(=C\\OC)C(=O)OC", "target": "rabbit anti-mitragynine polyclonal IgG", "assay": "competitive indirect ELISA", "conditions": "concentration not given", "how to read": "relative to: mitragynine", "measurement": "cross-reactivity", "value": "12.7%"}
{"SMILES": "COCOC[C@H]1O[C@H](O[C@H]2[C@H](O[C@@H]3O[C@H](CO)[C@@H](O[C@H]4O[C@@H](CN)[C@@H](O)[C@H](O)[C@H]4N)[C@H]3O)[C@@H](O)[C@H](N)C[C@@H]2N)[C@H](N)[C@@H](O)[C@@H]1O", "target": "ribosome with mitochondrial A1555G A site", "assay": "luciferase translation, cell-free translation", "measurement": "IC50", "value": "289 ± 10.8 µg/mL"}
{"SMILES": "CC[C@H](C)[C@@H]1NC(=O)[C@H](Cc2ccc(O)cc2)NC(=O)[C@@H](N)CSSC[C@@H](C(=O)N2CCC[C@H]2C(=O)N2CCC[C@H]2C(=O)NCC(N)=O)NC(=O)[C@H](CC(N)=O)NC(=O)[C@H](CCC(N)=O)NC1=O", "target": "oxytocin receptor (Callithrix jacchus)", "assay": "Ca2+ mobilisation, agonist", "test system": "CHO cells", "measurement": "EC50", "value": "0.44 nM"}
{"SMILES": "CN1C(=O)C2(Cc3ccc(CC45SSC(CO)(C(=O)N4C)N(C)C5=O)cc3)SSC1(CO)C(=O)N2C (racemic)", "target": "HIF-1α", "assay": "reporter gene, HRE luciferase reporter", "test system": "MDA-MB-231-HRE-Luc", "conditions": "600 nM, added: deferoxamine 300 µM, hypoxia", "measurement": "inhibition", "value": "94%"}
{"SMILES": "O=c1c(O)cccn1CCCN1CCN(CCCn2cccc(O)c2=O)CC1", "target": "Fe(III)", "assay": "complex formation", "measurement": "log K110", "value": 6.6}
{"SMILES": "O=C1c2cc(Cl)ccc2NC12CCCC2", "target": "acetylcholinesterase", "conditions": "10 µM", "measurement": "remaining activity", "value": "100 ± 5.23%"}
{"SMILES": "C=CCO[C@H]1[C@H](O)[C@@H](N)[C@@H](O[C@H]2[C@H](O[C@@H]3O[C@H](CO)[C@@H](O[C@H]4O[C@@H](CN)[C@@H](O)[C@H](O)[C@H]4N)[C@H]3O)[C@@H](O)[C@H](N)C[C@@H]2N)O[C@@H]1CO", "target": "ribosome with mitochondrial A1555G A site", "assay": "luciferase translation, cell-free translation", "measurement": "IC50", "value": "90.9 ± 9.96 µg/mL"}
{"SMILES": "C=C(NC(=O)C(=C)NC(=O)c1csc(C2=NC3c4csc(n4)C4NC(=O)c5csc(n5)C(C(C)(O)C(C)O)NC(=O)C5CSC(=N5)C(=CC)NC(=O)C(C(C)O)NC(=O)c5csc(n5)C3(CC2)NC(=O)C(=CC)NC(=O)C(=C)NC(=O)C(C)NC(=O)C(C(C)CC)NC2C=Cc3c(C(C)O)cc(nc3C2O)C(=O)OC4C)n1)C(N)=O (stereo not shown)", "target": "20S proteasome", "conditions": "three proteolytic activities", "how to read": "relative to: compound over thiostrepton A", "measurement": "IC50 ratio range", "value": "≤ 5 fold"}
{"SMILES": "Cc1c(-c2cccc(C3=NCCN3)c2)oc(-c2cccc(C3=NCCN3)c2)c1C", "target": "F21T G-quadruplex DNA", "assay": "FRET melting competition", "conditions": "1 µM, added: calf thymus DNA, G4:CT 1:100", "how to read": "relative to: without competitor", "measurement": "remaining ΔTm", "value": "100%"}
{"SMILES": "CCCO[C@H]1[C@H](O)[C@@H](N)[C@@H](O[C@H]2[C@H](O[C@@H]3O[C@H](CO)[C@@H](O[C@H]4O[C@@H](CN)[C@@H](O)[C@H](O)[C@H]4N)[C@H]3O)[C@@H](O)[C@H](N)C[C@@H]2N)O[C@@H]1CO", "target": "Mycobacterium smegmatis ribosome A1408G", "assay": "translation, cell-free luciferase synthesis", "measurement": "IC50", "value": "11.7 ± 4.94 µg/mL"}
{"SMILES": "Cc1cc2c(cc1Cl)-c1c(c(C(=O)NC3CCCCC3)nn1-c1ccc(Cl)cc1Cl)C2", "target": "cannabinoid receptor CB2 (human)", "assay": "agonist, western blot", "test system": "HL-60", "conditions": "0.125 µM, 15 min", "how to read": "relative to: vehicle", "measurement": "ERK1/2 phosphorylation", "value": "82.5 ± 19.1%"}
{"SMILES": "CCO[C@H]1[C@H](O)[C@@H](N)[C@@H](O[C@H]2[C@H](O[C@@H]3O[C@H](CO)[C@@H](O[C@H]4O[C@@H](CN)[C@@H](O)[C@H](O)[C@H]4N)[C@H]3O)[C@@H](O)[C@H](N)C[C@@H]2N)O[C@@H]1CO", "target": "ribosome with mitochondrial A site", "assay": "luciferase translation, cell-free translation", "measurement": "IC50", "value": "96.8 ± 4.22 µg/mL"}
{"SMILES": "O=C1c2cc(F)ccc2N(Cc2ccccc2)C12CCCC2", "target": "acetylcholinesterase", "conditions": "10 µM", "measurement": "remaining activity", "value": "99.1 ± 14.2%"}
{"SMILES": "CCCCO[C@H]1[C@H](O)[C@@H](N)[C@@H](O[C@H]2[C@H](O[C@@H]3O[C@H](CO)[C@@H](O[C@H]4O[C@@H](CN)[C@@H](O)[C@H](O)[C@H]4N)[C@H]3O)[C@@H](O)[C@H](N)C[C@@H]2N)O[C@@H]1CO", "target": "Mycobacterium smegmatis ribosome A1408G", "assay": "translation, cell-free luciferase synthesis", "measurement": "IC50", "value": "24.3 ± 5.82 µg/mL"}
{"SMILES": "COc1ccc(F)cc1S(=O)(=O)Nc1cnc2c(c1)C(=O)NCCO2", "target": "alkaline phosphatase", "assay": "inhibitor", "test system": "cynomolgus monkey", "conditions": "oral, 0.03 to 1.0 mg/kg, up to 4 h", "how to read": "relative to: vehicle", "measurement": "plasma ALP activity", "value": "decreased"}
